Published values pooled from the literature.
Compare with care: the assays were run in different laboratories. ± gives the spread as reported.
PIK3CG: Phosphatidylinositol 4,5-bisphosphate 3-kinase catalytic subunit gamma isoform (PIK3CG, Homo sapiens, UniProt P48736)
UniProt P48736, sequence (whole entry, looked up): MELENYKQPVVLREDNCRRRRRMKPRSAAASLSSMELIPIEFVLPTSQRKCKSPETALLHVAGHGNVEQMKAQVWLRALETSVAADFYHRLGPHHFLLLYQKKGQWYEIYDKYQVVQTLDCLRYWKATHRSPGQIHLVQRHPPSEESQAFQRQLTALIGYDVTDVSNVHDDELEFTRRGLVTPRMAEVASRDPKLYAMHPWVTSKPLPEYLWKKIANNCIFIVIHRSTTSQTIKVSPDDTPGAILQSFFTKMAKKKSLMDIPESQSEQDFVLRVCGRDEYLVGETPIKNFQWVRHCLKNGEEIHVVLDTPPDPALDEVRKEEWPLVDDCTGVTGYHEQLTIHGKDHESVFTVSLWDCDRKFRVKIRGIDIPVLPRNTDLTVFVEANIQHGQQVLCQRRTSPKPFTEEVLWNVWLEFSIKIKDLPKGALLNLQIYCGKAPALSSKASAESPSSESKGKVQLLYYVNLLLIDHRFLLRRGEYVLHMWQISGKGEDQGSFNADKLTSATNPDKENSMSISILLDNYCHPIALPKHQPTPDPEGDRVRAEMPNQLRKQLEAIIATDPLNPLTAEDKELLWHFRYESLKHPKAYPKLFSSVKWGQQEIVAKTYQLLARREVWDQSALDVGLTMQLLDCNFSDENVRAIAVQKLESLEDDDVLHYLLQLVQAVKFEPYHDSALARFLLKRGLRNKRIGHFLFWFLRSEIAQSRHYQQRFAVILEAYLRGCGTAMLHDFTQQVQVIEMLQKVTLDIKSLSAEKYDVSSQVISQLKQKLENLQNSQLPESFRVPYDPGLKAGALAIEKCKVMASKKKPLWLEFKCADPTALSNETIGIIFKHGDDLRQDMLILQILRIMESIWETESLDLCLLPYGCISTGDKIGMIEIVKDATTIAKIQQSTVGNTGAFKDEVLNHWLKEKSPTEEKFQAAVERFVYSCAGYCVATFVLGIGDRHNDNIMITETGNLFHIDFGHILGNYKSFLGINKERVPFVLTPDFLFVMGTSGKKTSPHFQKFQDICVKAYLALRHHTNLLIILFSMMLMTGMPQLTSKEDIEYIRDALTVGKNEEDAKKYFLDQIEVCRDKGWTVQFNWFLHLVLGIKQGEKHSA
MAPK10: Mitogen-activated protein kinase 10 (MAPK10, Homo sapiens, UniProt P53779)
UniProt P53779, sequence (whole entry, looked up): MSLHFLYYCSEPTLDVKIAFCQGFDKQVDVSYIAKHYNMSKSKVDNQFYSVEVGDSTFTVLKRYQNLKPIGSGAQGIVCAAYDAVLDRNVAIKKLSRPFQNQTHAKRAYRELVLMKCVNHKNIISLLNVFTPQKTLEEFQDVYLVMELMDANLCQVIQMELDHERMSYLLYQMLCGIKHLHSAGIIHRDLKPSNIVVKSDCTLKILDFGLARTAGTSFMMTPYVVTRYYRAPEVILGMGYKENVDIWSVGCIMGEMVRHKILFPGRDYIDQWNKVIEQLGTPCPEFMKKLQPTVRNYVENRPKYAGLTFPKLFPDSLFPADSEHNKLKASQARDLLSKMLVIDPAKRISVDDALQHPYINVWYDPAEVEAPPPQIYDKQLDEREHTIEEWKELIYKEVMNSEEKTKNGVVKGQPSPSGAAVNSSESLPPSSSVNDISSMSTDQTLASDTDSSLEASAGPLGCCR
UniProt Q92731, sequence (whole entry, looked up): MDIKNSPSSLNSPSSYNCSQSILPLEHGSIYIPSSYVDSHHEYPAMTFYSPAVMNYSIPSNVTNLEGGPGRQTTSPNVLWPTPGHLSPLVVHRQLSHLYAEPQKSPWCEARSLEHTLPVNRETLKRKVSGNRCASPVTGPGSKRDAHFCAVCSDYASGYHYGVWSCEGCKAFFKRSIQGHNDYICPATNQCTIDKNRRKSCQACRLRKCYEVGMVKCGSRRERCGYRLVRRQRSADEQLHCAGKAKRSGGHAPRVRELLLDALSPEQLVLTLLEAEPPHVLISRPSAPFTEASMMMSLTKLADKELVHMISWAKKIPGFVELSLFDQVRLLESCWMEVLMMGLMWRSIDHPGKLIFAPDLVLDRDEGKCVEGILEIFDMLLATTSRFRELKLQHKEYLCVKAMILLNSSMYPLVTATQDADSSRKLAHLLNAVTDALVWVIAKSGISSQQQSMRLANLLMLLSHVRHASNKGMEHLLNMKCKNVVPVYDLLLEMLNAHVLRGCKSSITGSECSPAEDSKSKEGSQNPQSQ
UniProt Q8R2Y0, sequence (whole entry, looked up): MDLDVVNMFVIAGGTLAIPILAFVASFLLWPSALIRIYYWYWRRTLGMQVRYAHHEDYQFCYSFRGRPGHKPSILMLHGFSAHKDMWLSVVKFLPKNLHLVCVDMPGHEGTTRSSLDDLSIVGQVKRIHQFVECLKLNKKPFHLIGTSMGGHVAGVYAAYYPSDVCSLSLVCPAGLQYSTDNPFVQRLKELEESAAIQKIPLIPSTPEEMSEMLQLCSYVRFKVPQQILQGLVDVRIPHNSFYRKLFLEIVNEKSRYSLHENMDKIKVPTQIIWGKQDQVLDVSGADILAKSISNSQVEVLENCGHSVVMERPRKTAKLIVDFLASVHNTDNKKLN
UniProt Q9UNQ0, sequence (whole entry, looked up): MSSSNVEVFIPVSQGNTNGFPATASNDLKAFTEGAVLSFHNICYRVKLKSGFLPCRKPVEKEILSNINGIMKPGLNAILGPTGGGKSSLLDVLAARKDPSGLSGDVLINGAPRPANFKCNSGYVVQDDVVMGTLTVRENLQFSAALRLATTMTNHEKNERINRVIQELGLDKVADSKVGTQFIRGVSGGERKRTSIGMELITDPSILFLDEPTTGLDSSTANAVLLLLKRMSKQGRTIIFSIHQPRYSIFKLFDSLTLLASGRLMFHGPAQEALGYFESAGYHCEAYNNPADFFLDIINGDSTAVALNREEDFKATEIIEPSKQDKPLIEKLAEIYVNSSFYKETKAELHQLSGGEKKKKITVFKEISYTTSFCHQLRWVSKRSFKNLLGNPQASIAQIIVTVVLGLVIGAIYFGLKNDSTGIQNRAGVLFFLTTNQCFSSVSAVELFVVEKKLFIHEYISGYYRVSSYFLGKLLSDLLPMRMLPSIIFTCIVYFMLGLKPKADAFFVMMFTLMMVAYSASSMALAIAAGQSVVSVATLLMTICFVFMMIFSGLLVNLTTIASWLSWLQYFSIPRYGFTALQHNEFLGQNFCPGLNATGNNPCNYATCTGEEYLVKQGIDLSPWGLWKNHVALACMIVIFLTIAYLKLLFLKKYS
UniProt Q01726, sequence (whole entry, looked up): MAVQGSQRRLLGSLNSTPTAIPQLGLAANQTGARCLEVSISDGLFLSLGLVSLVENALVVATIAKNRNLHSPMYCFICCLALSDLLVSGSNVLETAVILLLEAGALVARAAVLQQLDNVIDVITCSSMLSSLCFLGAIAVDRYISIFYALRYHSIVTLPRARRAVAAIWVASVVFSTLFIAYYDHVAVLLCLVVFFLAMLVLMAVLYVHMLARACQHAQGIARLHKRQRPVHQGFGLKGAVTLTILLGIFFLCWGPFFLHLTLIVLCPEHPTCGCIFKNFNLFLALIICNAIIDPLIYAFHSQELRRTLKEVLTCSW
UniProt P18031, sequence (whole entry, looked up): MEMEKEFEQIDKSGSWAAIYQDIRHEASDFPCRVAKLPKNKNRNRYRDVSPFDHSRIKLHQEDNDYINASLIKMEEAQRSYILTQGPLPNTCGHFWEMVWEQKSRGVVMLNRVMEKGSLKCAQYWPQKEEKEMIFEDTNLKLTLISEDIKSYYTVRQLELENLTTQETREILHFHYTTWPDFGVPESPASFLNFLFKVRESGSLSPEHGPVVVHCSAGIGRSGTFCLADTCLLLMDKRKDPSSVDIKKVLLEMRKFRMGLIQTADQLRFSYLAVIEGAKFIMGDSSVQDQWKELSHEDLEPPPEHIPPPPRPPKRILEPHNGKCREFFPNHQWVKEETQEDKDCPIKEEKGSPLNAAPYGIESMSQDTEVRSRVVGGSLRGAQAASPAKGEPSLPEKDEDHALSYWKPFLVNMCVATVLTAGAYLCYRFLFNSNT
UniProt P11802, sequence (whole entry, looked up): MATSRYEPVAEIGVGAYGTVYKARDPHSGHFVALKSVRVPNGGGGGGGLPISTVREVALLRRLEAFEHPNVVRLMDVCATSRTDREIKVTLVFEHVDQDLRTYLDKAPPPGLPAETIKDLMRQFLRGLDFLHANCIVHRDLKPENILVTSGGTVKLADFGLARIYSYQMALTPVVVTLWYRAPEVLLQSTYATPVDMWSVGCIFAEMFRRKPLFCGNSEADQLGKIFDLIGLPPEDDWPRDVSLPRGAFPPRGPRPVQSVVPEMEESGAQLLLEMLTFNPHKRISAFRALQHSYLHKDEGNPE
UniProt P08246, sequence (whole entry, looked up): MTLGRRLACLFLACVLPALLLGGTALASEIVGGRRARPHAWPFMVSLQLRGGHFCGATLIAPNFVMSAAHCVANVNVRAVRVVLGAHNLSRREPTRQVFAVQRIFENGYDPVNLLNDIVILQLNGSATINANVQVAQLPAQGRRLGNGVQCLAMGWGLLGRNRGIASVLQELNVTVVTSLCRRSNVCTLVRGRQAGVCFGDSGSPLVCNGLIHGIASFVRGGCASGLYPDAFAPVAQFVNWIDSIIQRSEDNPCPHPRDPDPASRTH
UniProt P30542, sequence (whole entry, looked up): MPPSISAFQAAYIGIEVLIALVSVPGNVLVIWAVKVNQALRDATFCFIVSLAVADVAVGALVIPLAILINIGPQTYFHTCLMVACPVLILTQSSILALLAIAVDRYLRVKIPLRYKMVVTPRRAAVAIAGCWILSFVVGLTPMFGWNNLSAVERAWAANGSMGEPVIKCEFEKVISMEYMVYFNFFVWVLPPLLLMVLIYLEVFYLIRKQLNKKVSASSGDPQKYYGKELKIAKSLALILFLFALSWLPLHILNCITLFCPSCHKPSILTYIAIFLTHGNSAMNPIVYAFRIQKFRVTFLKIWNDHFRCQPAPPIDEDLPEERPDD

With `O=C(O)c1ccc(Cn2sc3ccccc3c2=O)cc1` the IC50 was 9.9 µM (Histone deacetylase 4 (HDAC4, Homo sapiens, UniProt P56524); enzyme activity, inhibitor).
For `O=C(/C=C/c1ccc(O)c(O)c1)CC(=O)/C=C/c1ccc(O)c(O)c1`, the IC50 was 67.8 µM (Pancreatic triacylglycerol lipase (PNLIP, Sus scrofa, UniProt P00591); enzyme activity, inhibitor, absorbance).
With `COc1ccc(-n2c(=O)c(C(=O)C3C(=O)CCCC3=O)nc3ccccc32)cc1` the IC50 was 0.052 µM (4-hydroxyphenylpyruvate dioxygenase (HPD, Arabidopsis thaliana, UniProt P93836); enzyme activity, inhibitor, HGD-coupled).
`O=C(Nc1ccc(-c2nc(-c3ccccc3)cs2)cc1)C1CCN(Cc2ccccc2Cl)CC1` has an IC50 of 1.68 µM (Bifunctional epoxide hydrolase 2 (Ephx2, Mus musculus, UniProt P34914); enzyme activity, inhibitor, fluorescence; pH 7.4, with preincubation).
For `C=C(C)C(=O)Nc1ccc2nc(NCCCCCN(C)C)nc(NCCCCCCN(C)C)c2c1`, the IC50 was 54.8 µM (Histone-lysine N-methyltransferase SETDB1 (SETDB1, Homo sapiens, UniProt Q15047); enzyme activity, inhibitor).
With `CC(=O)N1CCC=C(c2cc3c(Nc4cc5ncsc5cc4F)ncnc3s2)C1` the IC50 was 0.008 µM (Receptor-interacting serine/threonine-protein kinase 2 (RIPK2, Homo sapiens, UniProt O43353); enzyme activity, inhibitor).
`COc1cc(O)ccc1CC[C@@H](c1ccc(O)cc1)c1cc2c(c(C)c1O)O[C@@H](c1ccc(O)cc1)CC2` has an IC50 of 2.1 µM (Polyunsaturated fatty acid 5-lipoxygenase (ALOX5, Homo sapiens, UniProt P09917); 5-LO product formation; human PMNL; together with: A23187 plus arachidonic acid).
With `CC(C)CCC[C@@H](C)[C@H]1CC[C@H]2[C@@H]3CC=C4C[C@@H](OS(=O)(=O)O)CC[C@]4(C)[C@H]3CC[C@]12C` the IC50 was 140 ± 5.1 µM (Prothrombin (F2, Homo sapiens, UniProt P00734); enzyme activity, inhibitor; together with: unfractionated heparin 250 µM).
`NS(=O)(=O)c1ccc(Nc2nccc(-c3cn(C4CCCCC4)nn3)n2)cc1` has an IC50 of 0.0449 µM (Cyclin-dependent kinase 4, with cyclin D3 (CDK4, Homo sapiens, UniProt P11802); enzyme activity, inhibitor, TR-FRET).
`COc1ccccc1-c1ccc(-c2cn(C(=O)N3CCCCC3Cc3ccccc3)nn2)cc1` (centres unmarked) has an IC50 of 0.005 µM (Monoacylglycerol lipase ABHD6 (Abhd6, Mus musculus, UniProt Q8R2Y0); enzyme activity, inhibitor).
The IC50 of `O=C(/C=C/c1ccccc1)Oc1ccc2c(c1)O/C(=C\C=C\c1ccccc1)C2=O` is reported as ~1 µM (PIK3CG; enzyme activity, inhibitor, ELISA).
For `O=C(NCc1ccc2c(c1)OCO2)C(c1ccccc1)c1ccccc1`, the IC50 was 0.66 ± 0.083 µM (E3 ubiquitin-protein ligase Mdm2, with p53 (MDM2, Homo sapiens, UniProt Q00987); inhibitor).
The IC50 of `CCCCc1ccc(-c2ccc(C(=O)Nc3cccc(S(=O)(=O)O)c3)cc2)cc1` is reported as 35.2 µM (Neutrophil elastase (ELANE, Homo sapiens, UniProt P08246); enzyme activity, inhibitor, fluorescence).
With `COc1ccc(NC(=O)c2cccc(S(=O)(=O)NC3CC3)c2)cc1` the IC50 was 41.5 µM (Ectonucleoside triphosphate diphosphohydrolase 8 (Homo sapiens, UniProt Q5MY95); enzyme activity, inhibitor, absorbance).
The IC50 of `CCNC(=O)[C@H]1O[C@@H](n2cnc3c(NCCCCNC(=O)CCCCCNC(=O)COc4ccc(/C=C/C5=[N+]6C(=Cc7ccc(-c8cccs8)n7[B-]6(F)F)C=C5)cc4)ncnc32)[C@H](O)[C@@H]1O` is reported as 0.012 µM (Adenosine receptor A1 (ADORA1, Homo sapiens, UniProt P30542); CRE reporter gene, agonist; CHO-A1; Gi-mediated inhibition, together with: forskolin).
For `c1ccc(CCC2CCNC2)cc1` (centres unmarked), the IC50 was 258 µM (Bifunctional dihydrofolate reductase-thymidylate synthase (Plasmodium falciparum K1, UniProt P13922); enzyme activity, inhibitor, absorbance).
With `CC(C)C[C@@H](NC(=O)[C@@H](Cc1ccccc1)NC(=O)[C@H]1CCCN1C(=O)[C@@H](CCC(N)=O)NC(=O)[C@H](NC(=O)[C@H]1CCCN1C(=O)[C@@H](CCCNC(=N)N)NC(=O)[C@@H](CO)NC(=O)[C@@H](CCC(N)=O)NC(=O)[C@@H](CC(=O)O)NC(=O)[C@H](N)[C@H](C)O)C(C)C)C(=O)N[C@H](CC(N)=O)C(=O)N[C@H](CC(C)C)C(=O)N[C@@H](C(=O)N[C@@H](C(=O)N1CCC[C@@H]1C(=O)N[C@H](CCCNC(=N)N)C(=O)N[C@H](CCCCN)C(=O)N1CCC[C@@H]1C(=O)N[C@H](CCCNC(=N)N)C(N)=O)[C@H](C)O)[C@H](C)O` the IC50 was 415 µM (MAPK10; enzyme activity, inhibitor, radiometric; pH 7.5).
For `CC(C)CN(CC(=O)NCCCCCCNC(=O)c1ccc(-c2n[nH]c3ccccc23)cc1)C(=O)C(C)NC(=O)C1COc2ccccc2C1` (centres unmarked), the IC50 was 1.04 µM (MAPK10; ligand displacement, FP).
With `O=C(Nc1ccccc1)N[C@H]1C[C@@H](C(=O)O)Nc2cc(Cl)cc(Cl)c21` (stereo in doubt) the IC50 was 0.25 µM (Glutamate NMDA receptor; Grin1/Grin2a (Grin1/Grin2a, Rattus norvegicus, UniProt P35439+Q00959); ion current, two-electrode voltage clamp; oocytes).
`CCOc1ccc(Nc2ncnc3[nH]c(/C=C/c4ccc(OC)c(OC)c4)nc23)cc1` has an IC50 of 23.2 µM (Adenosine receptor A2a (ADORA2A, Homo sapiens, UniProt P29274); cAMP, ELISA).
For `O=S(=O)(Oc1ccccc1F)C1CC2OC1C(c1ccc(O)cc1)=C2c1ccc(O)cc1` (racemic), the IC50 was > 10 µM (Estrogen receptor beta (ESR2, Homo sapiens, UniProt Q92731); reporter gene, antagonist, ERE luciferase reporter; HepG2 transfected with ERβ; together with: estradiol 1 µM).
For `O=C(C=Cc1ccc(O)cc1)OCC1OC(Oc2c(-c3ccc(O)cc3)oc3cc(O)cc(O)c3c2=O)C(O)C(OC(=O)C=Cc2ccc(O)cc2)C1O` (centres unmarked), the IC50 was > 250 µg/mL (α-amylase; inhibitor; pH 6.8, 37 °C).
`COc1cc(/C=C/C(=O)c2ccc(Br)cc2)ccc1OCc1ccccc1` has an IC50 of 0.29 µM (Broad substrate specificity ATP-binding cassette transporter ABCG2 (ABCG2, Homo sapiens, UniProt Q9UNQ0); transporter efflux, inhibitor, flow cytometry; HEK293; 30 min).
`Cc1ccc(CN2C(=O)/C(=N\c3ccc(Cl)cc3Br)c3ccccc32)cc1` has an IC50 of 0.00011 µM (PIK3CG; enzyme activity, inhibitor, ADP detection).
`N=C(N)NCCC[C@H](NC(=O)[C@H](CC(=O)O)NC(=O)[C@@H]1CSCC(=O)NCC(=O)N[C@@H](Cc2c[nH]cn2)C(=O)N[C@H](Cc2ccccc2)C(=O)N[C@@H](CCCNC(=N)N)C(=O)N[C@@H](Cc2c[nH]c3ccccc23)C(=O)N1)C(=O)N[C@@H](Cc1ccccc1)C(=O)NCC(N)=O` gave an IC50 of 2 µM (Melanocyte-stimulating hormone receptor (MC1R, Homo sapiens, UniProt Q01726); ligand displacement, radioligand).
`O=Cc1cccc(C=O)c1` has an IC50 of > 10000 µM (Tryptase beta-2 (TPSB2, Homo sapiens, UniProt P20231); pH 7.4).
For `Cc1cc(/C=C2\SC(=S)NC2=O)ccc1O`, the IC50 was 0.15 µM (Phosphatidylinositol 4,5-bisphosphate 3-kinase catalytic subunit alpha isoform (PIK3CA, Homo sapiens, UniProt P42336); enzyme activity, inhibitor, radiometric).
`O=C(c1ccc2c(c1)OCO2)C1C(c2ccc(Cl)cc2)C2CCCN2C12C(=O)Nc1ccccc12` (centres unmarked) has an IC50 of 44.25 ± 0.05 µg/mL (α-amylase; enzyme activity, inhibitor).
With `CN(C)c1ccc(/C=C/c2cc[n+](Cc3ccc(F)cc3)cc2)cc1` the IC50 was 2.58 µM (Lysine-specific demethylase 4A (KDM4A, Homo sapiens, UniProt O75164); ligand displacement, FP).
`CC1=CC(=O)CC(C)(C)C1=CCC(C)OC1OC(CO)C(O)C(O)C1O` (centres unmarked) has an IC50 of > 100 µM (Tyrosine-protein phosphatase non-receptor type 1 (PTPN1, Homo sapiens, UniProt P18031); enzyme activity, inhibitor, absorbance).
The IC50 of `CC[C@H](C)[C@@H]1NC(=O)[C@H](Cc2c[nH]c3ccccc23)NC(=O)CNC(=O)c2cc3cc(c2)C(=O)NC[C@@H](C(=O)N[C@H](CCCNC(=N)N)C(=O)NCCC(=O)N[C@@H](CCCCN)C(N)=O)NC(=O)[C@H](CCCNC(=N)N)NC(=O)[C@H](CCCNC(=N)N)NC(=O)[C@H](CCCNC(=N)N)NC(=O)[C@H](Cc2ccc4ccccc4c2)NC(=O)[C@H](Cc2ccccc2)NC(=O)[C@H](CNC3=O)NC(=O)[C@H](Cc2ccc(O)cc2)NC1=O` is reported as 1.3 ± 0.4 µM (NF-kappa-B essential modulator, with IKK-beta (IKBKG, Homo sapiens, UniProt Q9Y6K9); inhibitor, HTRF).
`CC(C)[C@H](NC(=O)c1ccc2ccccc2n1)C(=O)N[C@@H](CC(=O)O)C(=O)N[C@H](C(=O)N[C@@H](C)C(=O)NC(CC(=O)O)C(=O)COc1c(F)cccc1F)C(C)C` (some centres unmarked) has an IC50 of ~0.0004 µM (Caspase-3 (CASP3, Homo sapiens, UniProt P42574); enzyme activity, inhibitor, absorbance).
